Assay results pooled from the literature.
Each line is one published result; not all experiments were run side by side. Numbers after ± are the reported error.
BCHE: Cholinesterase (BCHE, Equus caballus, UniProt P81908)
UniProt P81908, sequence (whole entry, looked up): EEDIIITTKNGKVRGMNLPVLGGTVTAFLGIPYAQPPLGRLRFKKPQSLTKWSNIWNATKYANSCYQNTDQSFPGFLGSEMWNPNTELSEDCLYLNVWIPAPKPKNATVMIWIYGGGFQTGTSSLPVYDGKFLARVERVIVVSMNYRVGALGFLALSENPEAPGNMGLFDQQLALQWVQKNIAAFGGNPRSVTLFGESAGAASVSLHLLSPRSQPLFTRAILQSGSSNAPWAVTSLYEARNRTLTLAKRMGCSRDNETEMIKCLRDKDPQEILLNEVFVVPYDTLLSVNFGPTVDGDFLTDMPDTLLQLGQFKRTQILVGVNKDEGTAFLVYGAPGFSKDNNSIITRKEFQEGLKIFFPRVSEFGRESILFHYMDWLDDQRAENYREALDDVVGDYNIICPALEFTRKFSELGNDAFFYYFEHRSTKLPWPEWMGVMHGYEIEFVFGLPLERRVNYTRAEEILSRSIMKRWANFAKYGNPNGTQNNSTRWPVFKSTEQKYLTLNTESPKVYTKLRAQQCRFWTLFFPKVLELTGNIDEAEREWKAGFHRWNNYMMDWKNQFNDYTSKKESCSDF
UniProt P18507, sequence (whole entry, looked up): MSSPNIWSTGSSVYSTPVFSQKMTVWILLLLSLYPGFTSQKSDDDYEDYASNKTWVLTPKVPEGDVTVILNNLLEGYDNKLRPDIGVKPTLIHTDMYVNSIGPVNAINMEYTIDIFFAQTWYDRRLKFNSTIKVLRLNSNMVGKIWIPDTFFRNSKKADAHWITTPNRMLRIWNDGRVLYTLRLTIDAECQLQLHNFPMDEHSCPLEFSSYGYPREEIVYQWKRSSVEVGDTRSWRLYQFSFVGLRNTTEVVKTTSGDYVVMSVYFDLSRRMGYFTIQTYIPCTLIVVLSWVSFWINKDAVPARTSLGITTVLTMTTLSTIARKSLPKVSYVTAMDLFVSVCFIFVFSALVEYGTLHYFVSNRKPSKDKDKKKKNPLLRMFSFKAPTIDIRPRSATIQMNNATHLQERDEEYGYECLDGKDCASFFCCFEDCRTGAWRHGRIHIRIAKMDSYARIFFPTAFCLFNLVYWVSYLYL
UniProt P49146, sequence (whole entry, looked up): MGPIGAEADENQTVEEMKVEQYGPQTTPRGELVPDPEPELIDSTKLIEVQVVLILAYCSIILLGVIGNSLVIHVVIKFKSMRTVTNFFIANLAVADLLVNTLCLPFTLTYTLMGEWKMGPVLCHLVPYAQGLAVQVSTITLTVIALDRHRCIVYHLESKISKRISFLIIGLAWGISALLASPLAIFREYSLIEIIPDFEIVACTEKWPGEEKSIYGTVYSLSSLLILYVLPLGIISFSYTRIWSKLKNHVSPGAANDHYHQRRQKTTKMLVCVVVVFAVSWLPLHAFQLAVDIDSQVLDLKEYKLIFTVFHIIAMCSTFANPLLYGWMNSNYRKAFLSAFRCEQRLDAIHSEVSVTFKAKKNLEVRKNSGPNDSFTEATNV
UniProt Q16644, sequence (whole entry, looked up): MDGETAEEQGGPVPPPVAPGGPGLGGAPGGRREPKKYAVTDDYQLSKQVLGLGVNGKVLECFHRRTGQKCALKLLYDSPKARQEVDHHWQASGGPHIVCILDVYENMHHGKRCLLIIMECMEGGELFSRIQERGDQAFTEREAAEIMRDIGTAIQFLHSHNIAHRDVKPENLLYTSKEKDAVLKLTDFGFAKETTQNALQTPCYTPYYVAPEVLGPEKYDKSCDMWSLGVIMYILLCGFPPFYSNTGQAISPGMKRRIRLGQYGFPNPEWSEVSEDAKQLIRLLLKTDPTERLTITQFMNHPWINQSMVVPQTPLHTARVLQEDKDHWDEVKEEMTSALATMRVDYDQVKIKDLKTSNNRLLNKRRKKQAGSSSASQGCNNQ
UniProt P47901, sequence (whole entry, looked up): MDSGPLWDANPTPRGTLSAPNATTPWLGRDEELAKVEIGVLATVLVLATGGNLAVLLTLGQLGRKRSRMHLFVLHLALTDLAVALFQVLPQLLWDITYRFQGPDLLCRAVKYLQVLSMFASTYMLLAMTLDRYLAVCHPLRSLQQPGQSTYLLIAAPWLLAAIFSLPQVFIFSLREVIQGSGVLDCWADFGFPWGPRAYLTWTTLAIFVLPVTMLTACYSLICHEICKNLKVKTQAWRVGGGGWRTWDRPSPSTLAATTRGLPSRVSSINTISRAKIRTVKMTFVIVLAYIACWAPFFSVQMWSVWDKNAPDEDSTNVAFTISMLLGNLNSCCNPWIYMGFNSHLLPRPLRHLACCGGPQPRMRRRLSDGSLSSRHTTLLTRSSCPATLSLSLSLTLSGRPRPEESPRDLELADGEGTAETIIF
UniProt P28482, sequence (whole entry, looked up): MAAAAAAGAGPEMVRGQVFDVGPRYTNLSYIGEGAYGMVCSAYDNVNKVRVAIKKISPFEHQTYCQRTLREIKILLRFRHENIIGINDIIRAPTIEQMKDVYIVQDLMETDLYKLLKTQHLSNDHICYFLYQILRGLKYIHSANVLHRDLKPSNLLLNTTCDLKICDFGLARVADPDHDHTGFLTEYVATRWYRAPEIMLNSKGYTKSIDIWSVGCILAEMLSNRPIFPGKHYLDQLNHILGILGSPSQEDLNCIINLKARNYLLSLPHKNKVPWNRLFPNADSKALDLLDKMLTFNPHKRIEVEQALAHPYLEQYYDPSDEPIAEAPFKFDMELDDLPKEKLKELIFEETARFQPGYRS
UniProt O75460, sequence (whole entry, looked up): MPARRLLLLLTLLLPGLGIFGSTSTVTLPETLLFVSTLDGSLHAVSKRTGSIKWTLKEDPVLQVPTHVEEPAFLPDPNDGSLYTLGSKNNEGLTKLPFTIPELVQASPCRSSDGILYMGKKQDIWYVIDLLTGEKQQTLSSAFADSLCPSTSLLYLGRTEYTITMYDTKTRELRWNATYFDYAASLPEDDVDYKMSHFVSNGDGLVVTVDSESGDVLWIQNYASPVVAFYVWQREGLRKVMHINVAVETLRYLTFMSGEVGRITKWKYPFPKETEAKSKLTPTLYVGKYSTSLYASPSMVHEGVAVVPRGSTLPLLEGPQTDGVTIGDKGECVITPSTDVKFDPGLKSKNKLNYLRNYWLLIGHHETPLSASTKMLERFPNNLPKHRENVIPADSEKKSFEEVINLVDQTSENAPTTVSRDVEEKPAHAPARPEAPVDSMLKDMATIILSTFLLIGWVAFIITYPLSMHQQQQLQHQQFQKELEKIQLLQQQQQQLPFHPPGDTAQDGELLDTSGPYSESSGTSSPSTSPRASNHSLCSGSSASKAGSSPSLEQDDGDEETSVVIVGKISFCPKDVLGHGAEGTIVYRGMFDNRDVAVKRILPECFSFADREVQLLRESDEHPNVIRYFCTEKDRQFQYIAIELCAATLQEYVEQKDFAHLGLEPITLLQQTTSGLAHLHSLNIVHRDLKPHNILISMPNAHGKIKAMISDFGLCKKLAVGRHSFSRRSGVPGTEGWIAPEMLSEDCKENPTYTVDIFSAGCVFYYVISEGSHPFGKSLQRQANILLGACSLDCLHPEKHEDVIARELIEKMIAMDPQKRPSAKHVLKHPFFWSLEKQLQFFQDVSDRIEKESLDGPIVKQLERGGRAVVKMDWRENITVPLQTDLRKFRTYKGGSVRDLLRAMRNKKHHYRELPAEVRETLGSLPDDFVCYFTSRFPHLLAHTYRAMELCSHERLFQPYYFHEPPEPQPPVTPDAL
UniProt P08069, sequence (whole entry, looked up): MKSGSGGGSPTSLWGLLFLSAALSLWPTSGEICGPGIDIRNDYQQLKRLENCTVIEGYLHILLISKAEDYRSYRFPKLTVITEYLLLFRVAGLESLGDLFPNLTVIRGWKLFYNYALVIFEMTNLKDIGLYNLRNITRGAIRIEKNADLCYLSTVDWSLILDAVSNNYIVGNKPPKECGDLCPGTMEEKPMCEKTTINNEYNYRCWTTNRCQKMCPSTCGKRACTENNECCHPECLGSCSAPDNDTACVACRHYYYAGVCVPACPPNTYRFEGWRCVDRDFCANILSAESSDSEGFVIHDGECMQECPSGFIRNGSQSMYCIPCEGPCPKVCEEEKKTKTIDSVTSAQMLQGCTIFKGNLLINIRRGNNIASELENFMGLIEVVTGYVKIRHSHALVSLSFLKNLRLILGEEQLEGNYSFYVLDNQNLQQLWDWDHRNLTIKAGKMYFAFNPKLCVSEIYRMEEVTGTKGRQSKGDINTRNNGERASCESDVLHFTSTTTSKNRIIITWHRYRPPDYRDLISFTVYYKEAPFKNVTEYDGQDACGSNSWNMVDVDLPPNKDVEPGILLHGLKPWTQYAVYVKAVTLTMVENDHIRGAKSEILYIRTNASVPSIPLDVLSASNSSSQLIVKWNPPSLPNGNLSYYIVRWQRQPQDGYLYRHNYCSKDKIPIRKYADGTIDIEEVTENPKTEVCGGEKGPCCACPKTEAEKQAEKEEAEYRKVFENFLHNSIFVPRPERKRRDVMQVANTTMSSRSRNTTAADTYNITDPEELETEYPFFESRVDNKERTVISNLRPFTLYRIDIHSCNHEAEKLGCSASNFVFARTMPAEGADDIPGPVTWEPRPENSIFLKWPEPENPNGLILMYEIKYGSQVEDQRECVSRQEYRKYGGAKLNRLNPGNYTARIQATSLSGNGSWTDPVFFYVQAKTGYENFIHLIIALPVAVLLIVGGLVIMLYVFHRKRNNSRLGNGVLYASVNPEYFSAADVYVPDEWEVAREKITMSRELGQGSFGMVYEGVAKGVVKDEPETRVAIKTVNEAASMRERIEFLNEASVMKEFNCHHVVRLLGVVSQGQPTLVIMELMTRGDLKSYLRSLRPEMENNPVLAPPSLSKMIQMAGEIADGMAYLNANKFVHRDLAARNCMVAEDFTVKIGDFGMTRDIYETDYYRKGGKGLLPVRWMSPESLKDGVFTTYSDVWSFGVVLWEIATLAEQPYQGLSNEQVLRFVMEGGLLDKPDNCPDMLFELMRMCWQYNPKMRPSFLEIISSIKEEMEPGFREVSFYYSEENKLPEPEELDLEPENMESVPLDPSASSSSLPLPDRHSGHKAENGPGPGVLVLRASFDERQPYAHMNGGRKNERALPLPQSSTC

For `CS(=O)(=O)Nc1cccc(-c2csc3cnc(Nc4ccc(N5CCN(CCCCCOc6cccc7c6C(=O)N(C6CCC(=O)NC6=O)C7=O)CC5)cc4)nc23)c1` (stereo not drawn), the inhibition was 25.2% (TLK1 (Homo sapiens, UniProt Q9UKI8); probe labelling, inhibitor, KiNativ chemoproteomics; MOLT-4; 1 µM).
With `NC12CC3CC(CC(C3)C1)C2` the inhibition was 3% (Procathepsin L (CTSL, Homo sapiens, UniProt P07711); enzyme activity, inhibitor; 100 µM, with preincubation).
With `C/C(=N\OCCCN1CCCCC1)c1ccc(C(F)(F)F)cc1` the inhibition was 23.7% (GABA-A receptor; alpha-1/beta-2/gamma-2 (Homo sapiens, UniProt P14867+P18507+P47870); membrane potential, antagonist, FLIPR membrane potential; 10 µM).
`CC(C)[C@H]1NC(=O)C[C@H]2/C=C/CCSSC[C@@H](NC1=O)C(=O)N[C@H](Cc1cccc3ccccc13)C(=O)NCC(=O)O2` has an inhibition of 10.9% (MAPKAPK3 (Homo sapiens, UniProt Q16644); enzyme activity, inhibitor; 10 µM).
The inhibition of `CCc1cccc(CC)c1-n1cc(CCS(=O)(=O)F)nn1` is reported as 83 ± 1.1% (BCHE; Ellman; horse; 20 µM).
`N[C@H](C(=O)N1CCCC1)C1CCN(c2nccc3c(-c4ncc(Cl)cc4Cl)cccc23)CC1` has an inhibition of 7.4% (MAPK1 (Homo sapiens, UniProt P28482); kinase activity, inhibitor; 10 µM, added: ATP 1 mM).
For `CN[C@@H]1[C@H](O)[C@H](NC)[C@H]2O[C@]3(O)[C@H](O[C@@H]2[C@H]1O)O[C@H](C)C[C@H]3NC(=O)Cc1cc(Cl)ccn1`, the inhibition was -1% (NPY2R (Homo sapiens, UniProt P49146); ligand displacement, radioligand; 10 µM).
The inhibition of `C[C@H](NCc1ccc(-c2ccc(C(F)(F)F)cc2)cc1)C(N)=O` is reported as 0% (IGF1R (Homo sapiens, UniProt P08069); cell-free assay, competition with immobilised ligand; 1 µM).
With `NCCc1c[nH]c2ccc(Cl)cc12` the inhibition was 36.9% (BCHE; enzyme activity, inhibitor, Ellman; 20 µM).
With `CN[C@@H]1[C@H](O)[C@H](NC)[C@H]2O[C@]3(O)[C@H](O[C@@H]2[C@H]1O)O[C@H](C)C[C@H]3NC(=O)Cc1ccc(Cl)cn1` the inhibition was 20% (HRH2 (Homo sapiens, UniProt P25021); ligand displacement, radioligand; 10 µM).
For `COc1ccc(F)cc1S(=O)(=O)Nc1cnc2c(c1)C(=O)NCCO2`, the inhibition was 38% (NMDA receptor Agonism site; radioligand binding; 10 µM).
`O=C1NC2(CC2)COc2ncc(F)cc2[C@H]2COCCN2c2ccn3ncc1c3n2` — result for “organ-to-body weight ratio”: 2.98 ± 0.087% (Sprague-Dawley rat, female, liver; oral, 20 mg/kg/day, 4 weeks dosing, end of recovery).
For `CN(C)[C@H]1C[C@@]23CC[C@@]4(O2)C(=CC[C@]2(C)[C@@H](c5ccc6ccncc6c5)CC[C@H]24)C=C3[C@@H](O)[C@@H]1O`, the inhibition was -1% (CAMK1D (Homo sapiens, UniProt Q8IU85); ATP probe labelling, inhibitor, KiNativ profiling; 0.1 µM).
`CN(/N=C/c1ccccc1C(=O)O)c1nc(-c2ccccc2Cl)cs1` has an inhibition of 38.6% (ITK (Homo sapiens, UniProt Q08881); enzyme activity, inhibitor; 1 µM).
For `O=C(N1CCCCC1)n1ccnn1`, the inhibition was 50 to 95% (Platelet-activating factor acetylhydrolase 2, cytoplasmic (Mus musculus, UniProt Q8VDG7); serine hydrolase activity, inhibitor, competitive gel-based ABPP; mouse T-cell proteome; 1 µM, 30 min, 37 °C).
With `NCC1CCN(Cc2ccccc2F)CC1` the inhibition was 44.8% (BCHE; enzyme activity, inhibitor, Ellman; 20 µM).
For `CCCCCCCCCCCCCCCCCC(=O)NC[C@H]1CC[C@H](C(=O)N[C@@H](CCC(=O)NCCCOCCOCCOCCCNC(=O)COCC(=O)N[C@@H](Cc2ccc(O)cc2)C(=O)NC(C)(Cc2ccccc2)C(=O)N[C@@H](CC(C)C)C(=O)N[C@@H](CCCC)C(=O)N[C@@H](CCCNC(=N)N)C(=O)N2CCC[C@H]2C(=O)N[C@@H](CCCNC(=N)NC)C(=O)N[C@@H](CC(N)=O)C(N)=O)C(=O)O)CC1` (stereo partly drawn), the inhibition was 56% (AVPR1B (Homo sapiens, UniProt P47901); antagonist, DiscoverX GPCR panel; 1 µM).
`O=C(CN1CN(c2ccccc2)C2(CCN(C(=O)c3cnc4[nH]ncc4c3)CC2)C1=O)NCC(F)(F)F` gave an inhibition of under 50% (EGFR (Homo sapiens, UniProt P00533, del747-752/P753S); inhibitor; concentration not given).
The inhibition of `CC(=O)NC[C@@H]1[C@@H](O)C[C@H]2[C@H](O)C[C@@H](CO)N12` is reported as 67.7% (Spodoptera litura β-N-acetylglucosaminidase; crude enzyme; 0.856 µM, run 2, added: p-nitrophenyl GlcNAc).
`CS(C)(=O)=Nc1ccc(-c2ccc(-c3nc4cc(O[C@@H]5CO[C@H]6[C@@H]5OC[C@H]6O)[nH]c4cc3F)cc2)cc1` has an inhibition of 25% (sigma receptor human non-selective; binding; 10 µM).
For `Cc1ccc2c(n1)c(-c1cccc(S(C)(=O)=O)c1)c(C)n2C/C(F)=C/CN`, the inhibition was -7% (PDE3 (human); 10 µM).
`C=CC(=O)Nc1cc(-c2nn(C3CCC(N4CCN(C(C)=O)CC4)CC3)c3ncnc(N)c23)ccc1Oc1ccccc1` (stereo not drawn) has an inhibition of -14.6% (ERN1 (Homo sapiens, UniProt O75460); inhibitor, KiNativ profiling; biochemical; 2 µM).
`O=C(O)c1ccccc1/C=N/Nc1nc(-c2ccccc2Cl)cs1` has an inhibition of -5.23% (DYRK4 (Homo sapiens, UniProt Q9NR20); enzyme activity, inhibitor; 1 µM).
`NCC1CC1` has an inhibition of 30% (BCHE; enzyme activity, inhibitor, Ellman; 20 µM).

For quick reference, copied from above:
The inhibition of `CCc1cccc(CC)c1-n1cc(CCS(=O)(=O)F)nn1` is reported as 83 ± 1.1% (BCHE; Ellman; horse; 20 µM).
`N[C@H](C(=O)N1CCCC1)C1CCN(c2nccc3c(-c4ncc(Cl)cc4Cl)cccc23)CC1` has an inhibition of 7.4% (MAPK1 (Homo sapiens, UniProt P28482); kinase activity, inhibitor; 10 µM, added: ATP 1 mM).
